Measured values pooled from the literature.
Each line is one published result; not all experiments were run side by side.
Cell line: Vero

Structure (SMILES)	test	setting	CC50
CN(C)CCNC(=O)C(Cc1ccccc1)Nc1ccnc2cc(Cl)ccc12 (stereo not shown)	cell growth or viability, MTT	48 h	111 µM
CCCCCCCCC1=C(CCCCCCCCC(=O)OC)C1	cell growth or viability, MTS	24 h	> 1000 µM
O=c1nc(N2CCC(Oc3ccccc3Br)CC2)sc2c([N+](=O)[O-])cc(C(F)(F)F)cc12	cell growth or viability		> 10 µM
CCCCNC(=O)CNC(=O)C=CC(Cc1ccccc1)Nc1ccnc2cc(Cl)ccc12 (stereo not shown)	cell growth or viability, MTT	48 h	41.1 µM
COc1ccc(-n2nc3c(=O)n(Cc4cccc(NC(C)=O)c4)nc(C)c3c2C)cc1	cell growth or viability		245 µM
CC(C)c1cc2c(cc1[N+](=O)[O-])[C@@]1(C)CCC[C@@](C)(CNC(=O)c3ccccc3)[C@@H]1CC2	cell growth or viability, MTT	96 h	2.56 µM
CCOC(=O)C(NC(=O)CN1C(=O)/C(=C/c2ccc([N+](=O)[O-])cc2)SC1=S)C(C)C (stereo not shown)	cell growth or viability, resazurin	72 h	> 100 µM
Oc1cc(O)cc(Oc2c(O)cc(O)c3c2Oc2c(O)cc4oc5c(Oc6cc(O)cc(O)c6)c(O)cc(O)c5c4c2O3)c1	cell growth or viability, MTT	72 h	579 µM
CCOC(=O)C(CC)N1CCN(c2nc(=O)c3cc(C(F)(F)F)cc([N+](=O)[O-])c3s2)CC1 (stereo not shown)	cell growth or viability		> 10 µM
CCCCCCSc1ccc(SCCCCCC)c(O)c(=O)c1O	cell growth or viability, MTS	24 h	> 100 µM
CCOC(=O)C(CC)NC(=O)CN1C(=O)S/C(=C\c2ccc([N+](=O)[O-])cc2)C1=O (stereo not shown)	cell growth or viability, resazurin	72 h	> 100 µM
O=c1nc(N2CCC(Oc3ccccc3F)CC2)sc2c([N+](=O)[O-])cc(C(F)(F)F)cc12	cell growth or viability		> 10 µM
CC(C)NC(=O)CNC(=O)C=CC(Cc1ccccc1)Nc1ccnc2cc(Cl)ccc12 (stereo not shown)	cell growth or viability, MTT	48 h	44.9 µM
Cc1ccc(S(=O)(=O)Nn2c3c(cc(-c4nc5ccccc5s4)c2=O)CCCCCC3)cc1	cell growth or viability, trypan blue		300 µg/mL
Cc1nn(-c2cccc(C(=O)NC(C)C)c2)c(=O)c2nn(-c3ccccc3)c(C)c12	cell growth or viability		436 µM
CCOC(=O)C(C)NC(=O)CN1C(=O)N/C(=C\c2ccc(C)cc2)C1=O (stereo not shown)	cell growth or viability, resazurin	72 h	> 100 µM

Structure (SMILES)	test	setting	CC50
Cc1cc(NCC(=O)C(C)C)c2nc(N3CCOC[C@H]3C)cc(=O)n2c1	cell growth or viability, CCK-8	48 h	195 µM
O=c1c(O)cccc(SCc2ccccc2)c1O	cell growth or viability, MTS	24 h	> 100 µM
COc1ccc(Nc2c(C#N)cnc3ccc(Cl)cc23)cc1	resazurin	72 h, 10% FBS, together with: 30 µM heme	> 100 µM
COC(=O)c1cccc(-n2nc(C)c3c(C)n(-c4ccc(OC)cc4)nc3c2=O)c1	cell growth or viability		368 µM
CCCCSc1ccc(SCCCC)c(O)c(=O)c1O	cell growth or viability, MTS	24 h	87.2 µM
CCOC(=O)CNC(=O)CN1C(=O)S/C(=C\c2ccc(C)cc2)C1=O	cell growth or viability, resazurin	72 h	> 100 µM
Nc1ccc(C(=O)/C=C/c2ccccc2F)cc1	cell growth or viability, MTT	72 h	157 µM
CNC(C)C(=O)NC(C(=O)N1CCC2Oc3ccc(OC)c(c3)C=CNC(=O)C(C(C)C)NC(=O)C21)C(C)C (stereo not shown)	cell growth or viability, MTT	48 h	> 400 µM
CCCCCCCCC1=C(CCCCCCCC(=O)OC)C1	cell growth or viability, MTS	24 h	> 1000 µM
Cc1cc(NCCOC(C)C)c2nc(N3CCOC[C@H]3C)cc(=O)n2c1	cell growth or viability, CCK-8	48 h	196 µM
Cc1nn(Cc2cccc(NC(=O)c3ccccc3)c2)c(=O)c2nn(-c3ccccc3)c(C)c12	cell growth or viability		> 1000 µM
CCCCCCCCC1=C(CCCCCCCC(=O)O)C1	cell growth or viability, MTS	24 h	215 µM
CCOC(=O)CNC(=O)CN1C(=O)S/C(=C\c2ccc(OC)c(O)c2)C1=O	cell growth or viability, resazurin	72 h	> 100 µM
O=C(C=CC(Cc1ccccc1)Nc1ccnc2cc(Cl)ccc12)NCC(=O)NCc1ccccc1 (stereo not shown)	cell growth or viability, MTT	48 h	142 µM
CN(C)CCNC(=O)/C=C/C(Cc1ccccc1)Nc1ccnc2cc(Cl)ccc12 (stereo not shown)	cell growth or viability, MTS	48 h	33.6 µM

For quick reference, copied from above:
Structure (SMILES)	test	setting	CC50
CCCCSc1ccc(SCCCC)c(O)c(=O)c1O	cell growth or viability, MTS	24 h	87.2 µM
CCCCNC(=O)CNC(=O)C=CC(Cc1ccccc1)Nc1ccnc2cc(Cl)ccc12 (stereo not shown)	cell growth or viability, MTT	48 h	41.1 µM
